{"data": "Measured values collected from several papers", "note": "Every numbered part comes from another study and shows a few of its results, in no order. Positions count from the first letter of the parent shown.", "sequence of UniProt Q15831 (whole entry, looked up)": "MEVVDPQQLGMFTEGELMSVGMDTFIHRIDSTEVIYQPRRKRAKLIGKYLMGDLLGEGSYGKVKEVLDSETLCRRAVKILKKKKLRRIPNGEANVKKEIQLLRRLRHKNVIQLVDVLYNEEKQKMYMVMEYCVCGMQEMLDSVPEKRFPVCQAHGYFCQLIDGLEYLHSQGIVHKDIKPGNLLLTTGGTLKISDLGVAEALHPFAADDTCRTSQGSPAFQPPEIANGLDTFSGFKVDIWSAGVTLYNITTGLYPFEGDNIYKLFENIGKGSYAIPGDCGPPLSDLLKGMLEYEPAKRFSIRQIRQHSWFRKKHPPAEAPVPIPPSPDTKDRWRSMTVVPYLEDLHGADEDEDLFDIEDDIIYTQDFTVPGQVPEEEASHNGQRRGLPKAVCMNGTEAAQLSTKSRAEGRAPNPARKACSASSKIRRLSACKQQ", "sequence of UniProt Q9NRH2 (whole entry, looked up)": "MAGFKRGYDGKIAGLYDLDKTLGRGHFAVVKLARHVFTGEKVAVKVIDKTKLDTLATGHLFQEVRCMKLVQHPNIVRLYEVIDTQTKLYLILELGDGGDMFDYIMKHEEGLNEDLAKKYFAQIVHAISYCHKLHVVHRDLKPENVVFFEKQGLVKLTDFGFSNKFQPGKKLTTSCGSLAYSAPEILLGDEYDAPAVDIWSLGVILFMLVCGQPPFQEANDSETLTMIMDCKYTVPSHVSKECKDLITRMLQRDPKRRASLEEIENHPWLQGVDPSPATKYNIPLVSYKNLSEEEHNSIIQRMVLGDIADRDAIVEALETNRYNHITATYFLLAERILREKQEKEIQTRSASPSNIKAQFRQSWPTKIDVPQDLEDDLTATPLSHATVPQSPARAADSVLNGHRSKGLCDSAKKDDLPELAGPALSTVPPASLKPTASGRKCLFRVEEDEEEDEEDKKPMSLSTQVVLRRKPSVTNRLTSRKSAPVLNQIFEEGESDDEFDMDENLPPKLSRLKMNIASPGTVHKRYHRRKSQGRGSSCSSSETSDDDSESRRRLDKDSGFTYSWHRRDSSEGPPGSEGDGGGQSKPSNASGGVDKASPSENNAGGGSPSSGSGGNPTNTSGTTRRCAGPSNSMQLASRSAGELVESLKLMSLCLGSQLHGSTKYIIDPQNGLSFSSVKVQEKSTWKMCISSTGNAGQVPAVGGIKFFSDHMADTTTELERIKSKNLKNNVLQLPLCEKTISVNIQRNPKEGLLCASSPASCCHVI"}
{"data": "Series 1", "Change": "H55C", "target": "ABI1, truncated, D143A, DHFR fusion (Arabidopsis thaliana)", "method": "DHFR PCA, deep sequencing", "medium": "yeast", "notes": "methotrexate growth selection, single substitutions", "baseline": "wild-type fitted maximum", "reading": "higher = stronger binding", "starting sequence": "PYL1, truncated, DHFR fusion (Arabidopsis thaliana); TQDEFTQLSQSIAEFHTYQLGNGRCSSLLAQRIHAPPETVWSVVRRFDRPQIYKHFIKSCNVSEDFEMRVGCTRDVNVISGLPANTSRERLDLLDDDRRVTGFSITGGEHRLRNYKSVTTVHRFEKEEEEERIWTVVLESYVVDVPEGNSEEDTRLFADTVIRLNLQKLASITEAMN; partner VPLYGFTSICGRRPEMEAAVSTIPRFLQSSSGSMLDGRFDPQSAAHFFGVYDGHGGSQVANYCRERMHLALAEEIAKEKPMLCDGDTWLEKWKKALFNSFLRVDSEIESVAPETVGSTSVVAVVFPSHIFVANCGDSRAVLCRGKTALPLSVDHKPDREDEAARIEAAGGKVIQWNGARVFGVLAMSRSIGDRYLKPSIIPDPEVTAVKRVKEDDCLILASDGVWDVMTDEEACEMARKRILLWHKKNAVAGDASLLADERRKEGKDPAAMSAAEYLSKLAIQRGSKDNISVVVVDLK"}
{"together with": "(+)-ABA 0.11 µM", "relative binding score [%]": 41.7}
{"together with": "(+)-ABA 0 µM", "relative binding score [%]": 13.4}
{"together with": "(+)-ABA 0.0091 µM", "relative binding score [%]": 24.1}
{"together with": "(+)-ABA 17 µM", "relative binding score [%]": 96.1}
{"together with": "(+)-ABA 4.8 µM", "relative binding score [%]": 86.6}
{"together with": "(+)-ABA 58 µM", "relative binding score [%]": 93.5}
{"data": "Single results of other studies"}
{"Molecule": "SMC4 (Homo sapiens, UniProt Q9NTJ3)", "target or system": "AGTPBP1 (Homo sapiens, UniProt Q9UPW5)", "assay": "cross-linking MS", "test system": "cell fractions", "setting": "together with: DSSO", "endpoint": "cross-linked residues", "value": "K363 to K1023"}
{"Molecule": "COc1ccc2cc(OCC3(C(=O)O)CN(C(=O)c4ccc(F)cc4)C3)ccc2c1", "target or system": "SNF-related serine/threonine-protein kinase (SNRK, Homo sapiens, UniProt Q9NRH2)", "assay": "cell-free assay, competition with immobilised ligand", "setting": "1 µM", "endpoint": "remaining binding", "value": "100%"}
{"Molecule": "CDK2AP2 (Homo sapiens, UniProt O75956)", "target or system": "CHD4 (Homo sapiens, UniProt Q14839)", "assay": "cross-linking MS", "setting": "hits only", "endpoint": "interaction screen", "value": "cross-linked"}
{"Molecule": "CCCOc1ccc([C@H]2[C@H](C(=O)O)[C@@H](c3ccc4c(c3)OCO4)CN2CC(=O)Nc2c(CC)cccc2CC)cc1", "target or system": "Serine/threonine-protein kinase STK11 (STK11, Homo sapiens, UniProt Q15831)", "assay": "cell-free assay, competition with immobilised ligand", "setting": "1 µM", "endpoint": "remaining binding", "value": "88%"}
{"Molecule": "IPO5 (Homo sapiens, UniProt O00410)", "target or system": "NOP14 (Homo sapiens, UniProt P78316)", "assay": "cross-linking MS", "test system": "cell fractions", "setting": "together with: DMTMM", "endpoint": "cross-linked residues", "value": "E725 to K26"}
{"Molecule": "CCC[C@H]1NC(=O)CSC[C@@H](C(=O)OCC)N(C)C(=O)[C@H](CC(C)C)NC(=O)[C@@H](C)N(C)C(=O)[C@@H](CC(C)C)NC(=O)[C@H](C)N(C)C(=O)[C@@H]2CCCN2C(=O)[C@H](CC(C)C)NC(=O)CN(CCC)C1=O", "test system": "hydrocarbon/water", "endpoint": "logD", "value": 0.711}
{"note": "Repeated from above (single results of other studies):"}
{"Molecule": "CCCOc1ccc([C@H]2[C@H](C(=O)O)[C@@H](c3ccc4c(c3)OCO4)CN2CC(=O)Nc2c(CC)cccc2CC)cc1", "target or system": "Serine/threonine-protein kinase STK11 (STK11, Homo sapiens, UniProt Q15831)", "assay": "cell-free assay, competition with immobilised ligand", "setting": "1 µM", "endpoint": "remaining binding", "value": "88%"}
